Results of several laboratories.
Compare with care: the assays were run in different laboratories. “And” joins repeats or separate records; there may be more than shown.
Target: Serine/threonine-protein kinase tousled-like 1 (TLK1, Homo sapiens, UniProt Q9UKI8)

`Cc1cnc2nc1Nc1cccc(c1)COC/C=C/COCc1cc(ccc1OCCN1CCOCC1)N2` gave a remaining binding of 98% (binding, competition with immobilised ligand; 0.1 µM).
The Hill slope of `Cc1ccc(C(=O)Nc2ccc(CN3CCN(C)CC3)c(C(F)(F)F)c2)cc1C#Cc1cnc2cccnn12` is reported as 0.0581 (target engagement, NanoBRET; human cells).
The remaining binding of `CCN1CCN(Cc2ccc(NC(=O)c3ccc(C)c(NC(=O)c4cncc(-c5cnn(C)c5)c4)c3)cc2C(F)(F)F)CC1` is reported as 82% (binding, competition with immobilised ligand; 1 µM).
The remaining binding of `C=CC(=O)N1CCc2ccc(-n3c(=O)ccc4cnc5ccc(-c6cnn(C)c6)cc5c43)cc21` is reported as 77% (KINOMEscan; 1 µM; reference: DMSO control).
`NC(=O)[C@@H](O)C[C@H]1CCc2sc3ncnc(O[C@H]4CC[C@H](N5CCOCC5)CC4)c3c21` has an inhibition of 0% (enzyme activity, inhibitor; 10 µM).
`Nc1ncc2c(n1)-c1c([nH]c3ccc(C4=CCOCC4)cc13)CCC2` has a remaining binding of 100% (binding, competition with immobilised ligand; 1 µM).
`C=CC(=O)N1Cc2nc(-c3cc(-c4cc(Cl)cnc4Cl)c(F)cc3F)n(-c3ccncn3)c2C1` has an inhibition of -6.1% (cell-free assay, inhibitor; 1 µM).
For `CS(=O)(=O)Nc1cccc(-c2csc3cnc(Nc4ccc(N5CCN(CCCCCOc6cccc7c6C(=O)N(C6CCC(=O)NC6=O)C7=O)CC5)cc4)nc23)c1` (stereo not shown), the inhibition was 18.1% (probe labelling, inhibitor, KiNativ chemoproteomics; MOLT-4; 1 µM).
With `CNC1C[S+]2CC[S+]3CC[S+](C1)[Ru-4]321([N]=C=S)[n]2c3ccc(OC)cc3c3c4c(c5cc(F)c[n+]1c5c32)C(=O)NC4=O` (stereo not shown) the remaining binding was 88% (KinomeScan; 0.1 µM; reference: untreated).
With `COc1cc(Nc2nc(C)cc(-c3cnn4nc(OC)ccc34)n2)cc(C(F)(F)F)c1` the remaining binding was 100% (binding, competition with immobilised ligand; 1 µM).
`N[C@H]1CC[C@H](Nc2nccc(-c3cccnc3Oc3ccc(NC(=O)NC4CC4)c4ccccc34)n2)CC1`: “log2 LFQ intensity” 18.9 and 21.1 and 18.4 and 19.7 (kinobead competition pulldown; HEK293/HCT116 lysate mixture; 10 µM, 1 h, 4 °C; lower = stronger competition).
The remaining activity of `Nc1ncc(-c2cc(-c3cnn(CC(F)(F)F)c3)ncc2F)nc1C(=O)NC1CNCC(F)C1` (stereo not shown) is reported as 93.5% (enzyme activity; 1 µM; reference: DMSO control).
For `C=CC(=O)N1CCCC(n2c(=O)c3ncccc3n(Cc3ccc(Oc4ccccc4)cc3)c2=O)C1` (stereo not shown), the remaining binding was 95% (cell-free assay, competition with immobilised ligand; 1 µM).

A few entries again:
The remaining binding of `C=CC(=O)N1CCc2ccc(-n3c(=O)ccc4cnc5ccc(-c6cnn(C)c6)cc5c43)cc21` is reported as 77% (KINOMEscan; 1 µM; reference: DMSO control).
